Experimental data collected from several papers.
Parts stem from different laboratories: compare values within a part only.

Series 1 — method: RNA Bind-n-Seq; molecule type: RNA; sample: in vitro; tested at: 365 nM; baseline: no-protein control; reading: higher = stronger binding; endpoint: RBNS enrichment (R)
Target: RNA binding protein fox-1 homolog 2, RRM domain, GST-SBP tag (RBFOX2, Homo sapiens, UniProt O43251-10, residues 100-194)
Setting: natural RNA segment, single round, ends assumed
All sequences stand within: GGGAGUUCUACAGUCCGACGAUC … UGGAAUUCUCGGGUGCCAA
Residues (chain): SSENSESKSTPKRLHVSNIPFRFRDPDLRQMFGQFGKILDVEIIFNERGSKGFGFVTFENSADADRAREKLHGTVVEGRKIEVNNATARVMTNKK
ACCCAAAACCAAGCAUUUUGGAAUGAGUCUCCUUUAGUUUCAGAGUGUGGAUUGUAUAACCCAUAUACUCUUCGAUGUACUUGUUUGGUUUGGUAUUAAUUUGACUGUGC: 0.4
CAGCCAGGGGGCGCCCACAACCCCUUCAAGGACUGAAGCCUCAAGCUGCCCGGGGUGGCACGUCGCGAAAGCUUGUUUCCCCACGGUCUGGCUUCUGCAGGGGAAAUUUC: 0.435
AAGCCCCUGGAAAUGCGUGUGACCUGUGAAGUGGUGUAUUGUCACAGUAGCUUAUUUGAACUUGAGACCAUUGUAAGCAUGACCCAACCUACCACCCUGUUUUUACAUAU: 5.01
UCCAGCGUUUUUACUGUGAAUGUAAAUGGAACAGCAGCCCAAAGCUGUUGUCUGUGCCCCAGAGGUGCUACCUGUAGACAGGGACCAACUCCAUGUGUGUGUGUUAAGUG: 0.993
CAACUCCUGACAGAAUAACCAGGCUCUUGAUUUAGAUCAUGUGGAAGGUGAGAUAUAAAUGUAUAUAGACAUGUAGCUGAGGAUAUUAAUUUCAGUCUUAAAGUGUGACU: 0.7
UCCCCUGACUCCCGUCUCCAUCUGUCACGUGGUUCACCAUCAUCAGGCACCAGGCGCAAACUGCUUCCCGCUGUUGGCCAUCCCUUCCCCAGCCACAGGUGUCCCUGCCC: 0.438
GCACAUCUUGGAGAGCUUGUGGACAUACUAUCUUUCAAUGAAGUAUAUUCAAAGGAUAUUUAUAUUGGUGAUAUUUAAAUUAACACAGACAUGCAAAGCAUUCUUUUGCA: 0.713
CUUACAAGGAGGGGUUACCAUGUAUCACACCUAAUCUUCCCAAUGUUUGGGAUAUUAAAACACAAAGUCCUUAACAUGCCAGGCUCAAGGUCUUAUAAGAGUUCUAGAUU: 0.354
UGAUGGACUCCGGGGGCCUGACACUUGGGAUUUGGGAGGCUUCCUAGAGCGCUCAGCAGGUGAAGGCAGCAGGGGCCAUGGCCGGGAGCCAGGCCUAGCUUUGAACUGAG: 0.624

Series 2 — method: protein-binding microarray; molecule type: double-stranded DNA, one strand shown; sample: in vitro; tested at: 2200 nM top; setting: 60-bp whole probe; added: salmon DNA 0.4 mg/ml; baseline: random background probes; reading: higher = stronger binding; endpoint: fitted relative affinity; all sequences stand within: GCCTAGCAC … GTCTTGATTCGCTTGACGCTGCTG
Target: Interferon regulatory factor 7, full length, phosphomimetic (IRF7, Homo sapiens, UniProt Q92985, residues 1-503, S471D/S472D/S475D/S476D/S477D/S483D/S484D/S487D)
Construct (chain): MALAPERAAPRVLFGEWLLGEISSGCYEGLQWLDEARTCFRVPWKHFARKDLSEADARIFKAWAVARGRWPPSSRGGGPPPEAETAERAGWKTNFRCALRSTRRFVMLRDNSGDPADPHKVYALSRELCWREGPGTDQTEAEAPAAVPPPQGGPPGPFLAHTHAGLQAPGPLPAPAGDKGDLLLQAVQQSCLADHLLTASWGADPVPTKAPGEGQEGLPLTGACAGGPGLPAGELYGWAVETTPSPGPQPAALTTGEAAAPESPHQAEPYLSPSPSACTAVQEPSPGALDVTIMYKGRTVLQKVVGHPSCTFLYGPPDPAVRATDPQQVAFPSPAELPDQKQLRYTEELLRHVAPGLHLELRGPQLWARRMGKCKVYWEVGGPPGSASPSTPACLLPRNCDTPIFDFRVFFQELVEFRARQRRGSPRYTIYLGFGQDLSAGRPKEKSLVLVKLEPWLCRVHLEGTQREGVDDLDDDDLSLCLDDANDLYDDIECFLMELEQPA
CTGGTGCTCATCTGTCATGTTGTGCTA: 0.764 z-score
GACGATTTCAGACTGGACACGTGCTAG: 0.583 z-score
ATAGGTCTCCTACTGCTTTAGTGCTAG: 0.793 z-score
TTAGGTTTCGATTATCGGTTAGTGCTA: 5.07 z-score
TTAGATCCCAGTCTCGATTAGTGCTAG: 1.09 z-score
AGAGTCACCCATCTCAGCAAGTGCTAG: -0.0129 z-score
TTAGGTTTCCTACTGCTGTAGTGCTAG: 1.22 z-score
GACGGTCTCCTACCGCTGACGTGCTAG: 0.123 z-score
TCAATATCCATTATAGAACTGTGCTAG: 0.649 z-score
TTAGGACAGCTTCTCCTTTAGTGCTAG: 0.324 z-score
TTAGGACTGGGTACTGGGTTAGTGCTA: -0.947 z-score
TTCGGTATCGGTATCGGTTAGTGCTAG: 1.69 z-score
TTAGGTCTCCTACCGCTTTAGTGCTAG: 0.537 z-score
ATAGGTATCGGGTTTCGGTTAGTGCTA: 4.2 z-score
GACGGACTGGACTGTCGGGACGTGCTA: -0.873 z-score
TTAGATATCGGGTTCCGATTAGTGCTA: 0.498 z-score
CTTTAACTCATTCTCTGCTTGTGCTAG: 1.25 z-score
AACGGACTGCTTATCCTGACGTGCTAG: 0.187 z-score

Series 3 — method: competition protein-binding microarray; molecule type: double-stranded DNA, one strand shown; sample: in vitro; tested at: 2 µM; added: Cbf1 competitor, 0.05 µM; reading: higher = stronger binding; endpoint: fluorescence intensity; all sequences stand within: … GTCTTGATTCGCTTGACGCTGCTG
Target: Phosphate system positive regulatory protein PHO4, full length, GST-tagged (PHO4, Saccharomyces cerevisiae, UniProt P07270, residues 1-312)
Setting: whole 60-bp probe, lowest competitor level
Residues (chain): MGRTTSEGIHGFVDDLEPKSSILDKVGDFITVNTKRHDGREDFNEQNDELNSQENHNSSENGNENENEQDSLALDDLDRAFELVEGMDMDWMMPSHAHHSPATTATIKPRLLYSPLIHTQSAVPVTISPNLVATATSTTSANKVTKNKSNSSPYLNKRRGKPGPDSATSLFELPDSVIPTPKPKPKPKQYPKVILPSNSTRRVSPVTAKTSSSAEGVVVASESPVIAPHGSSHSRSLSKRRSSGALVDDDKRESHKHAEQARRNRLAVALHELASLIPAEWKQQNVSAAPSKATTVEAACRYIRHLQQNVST
CGTCCTAGCGATTGATCTGTGGGTGCCATGAGGAAG: 6730 a.u.
CTAACGAAGGTTTGCTAGGTGGGTGACAAGCCAAGT: 3950 a.u.
CGTTCCAAGCCGAGTCACGTTTGTGGTGTTGTCGTA: 9780 a.u.
TTGAACGACAAGACTCACGTGGTCGAGCTTCTACCA: 15800 a.u.
GAGCGACTCAGGACGCGCGTGTGTTATTTTGGCCCC: 8740 a.u.
ACCCGTAGTGGATGTGGCGTGCGGATGGGACTCGAC: 7790 a.u.
ATCACATCAAAACATTGTGGTTCTCTGAACAGCCTA: 4900 a.u.
CTTTCCCGATCTTTTCACGTGAGGTTAGCACATTTG: 11400 a.u.
CACCCCAACAAAGGACATGTGGAAATTGATCGTCGA: 8130 a.u.
CTAACGAAGGTTTGGCGCGTGGGTGACAAGCCAAGT: 10300 a.u.
CGGGGTTAAGTTTGAAGAGTGGGTGGCTTGCAGCAG: 3880 a.u.
CGGGGTTAAGTTTGAAGCGTGGGTGGCTTGCAGCAG: 8120 a.u.
AAAGCGGTAATTTTTCACGTGGCCTCACATATCTAT: 15400 a.u.
TCACTGAACTTCTGTGACCTGCGAGGACCAAGATCA: 2640 a.u.
CGTCCTAGTGATTGTCACCTAACTTCCATGAGGAAG: 3990 a.u.
TATCCGGACATTTTTCCCGTGATGGAATTGGCATCC: 3720 a.u.
AGACCAGTGTATATTCAGCTGATCCCAATTATCATT: 3090 a.u.
CAGGGCATCTCGAGCATCGTGGAGGAGATCCCTGTC: 8620 a.u.
GTCTTGTCTCATTGCGCTGTGGGTGTCCCCACTTCA: 4450 a.u.
CGGGGTTAAGTTTTACACGTGTTTTGCTTGCAGCAG: 16500 a.u.
CTTTCCGTTTGCGGACTCGTGCAAAAGCTTACCTTC: 8530 a.u.
CGGGGTTAAGTTTGCGGTGTGGGTGGCTTGCAGCAG: 5860 a.u.
CTTCTGTAAATTTGGTAAGTGGGTGGACGCGCCCCG: 4650 a.u.

Series 4 — method: aptamer microarray, sandwich; molecule type: DNA with 2'F-ANA; sample: in vitro; tested at: 200 nM; added: Cy3 exosite-II aptamer, 400 nM; reading: higher = stronger binding; endpoint: mean fluorescence intensity; strand: GGTTGGTGTGGTTGG
Target: Prothrombin, mature alpha-thrombin (F2, Homo sapiens, UniProt P00734)
Setting: whole 15-mer aptamer, many near background
2'F-ANA at 2 4 5 6 7 8 9 10 13 14: 50.5 a.u.
2'F-ANA at 1 3 8 9 11 12 13: 474 a.u.
2'F-ANA at 3 4 7 8 10 11 12: 383 a.u.
2'F-ANA at 2 3 8 12: 1150 a.u.
2'F-ANA at 3 4 5 6 9 12: 203 a.u.
2'F-ANA at 3 4 5 6 7 10 11 12 13 15: 85.5 a.u.
2'F-ANA at 1 3 4 5 7 8 10 11 12 15: 48.8 a.u.
2'F-ANA at 1 2 3 5 7 10 12 15: 48.5 a.u.
2'F-ANA at 3 5 6 7 8 11 12 13 15: 293 a.u.
2'F-ANA at 4 5 7 8 9 10 11 12 14: 45.9 a.u.
2'F-ANA at 3 6 7 8 12 14: 644 a.u.
2'F-ANA at 1 5 6 8 11 12: 89.5 a.u.
2'F-ANA at 1 3 4 7 8 13 15: 181 a.u.
2'F-ANA at 2 4 5 9 13: 50.3 a.u.
2'F-ANA at 1 4 5 6 7 8 9 11 12 15: 89.6 a.u.
2'F-ANA at 1 2 6 8 9 13 15: 114 a.u.
2'F-ANA at 4 7 8 10 11 12 13 15: 96.7 a.u.
2'F-ANA at 1 3 4 5 6 7 9 12 13 14: 48.5 a.u.
2'F-ANA at 3 4 5 8 13 14: 50.2 a.u.
2'F-ANA at 1 2 3 6 7 8 14 15: 76.3 a.u.
2'F-ANA at 5 8 11 13 14 15: 44.2 a.u.
2'F-ANA at 7 8 9 10 11 14 15: 122 a.u.
2'F-ANA at 1 3 4 7 9 10 11 12: 79.1 a.u.
2'F-ANA at 3 4 6 8 9 10 12 13 15: 204 a.u.

Some of these lines once more (series 4):
2'F-ANA at 1 3 4 7 8 13 15: 181 a.u.
2'F-ANA at 1 5 6 8 11 12: 89.5 a.u.
2'F-ANA at 3 4 7 8 10 11 12: 383 a.u.
2'F-ANA at 1 3 4 5 7 8 10 11 12 15: 48.8 a.u.
2'F-ANA at 1 2 3 5 7 10 12 15: 48.5 a.u.
2'F-ANA at 7 8 9 10 11 14 15: 122 a.u.
2'F-ANA at 4 5 7 8 9 10 11 12 14: 45.9 a.u.
2'F-ANA at 1 2 6 8 9 13 15: 114 a.u.
2'F-ANA at 2 4 5 9 13: 50.3 a.u.
